Published values of several laboratories.
Each line is one published result; not all experiments were run side by side. Values joined by “and” are separate records of one study, mostly repeats; a detail may differ. Numbers after ± are the reported error.

Structure (SMILES) | target or system | test | system | setting | quantity | value
CC[C@H](C)[C@H](NC(=O)[C@H](CCCNC(=N)N)NC(=O)[C@H](CCCCN)NC(=O)[C@H](Cc1ccc(O)cc1)NC(=O)[C@H](CC(=O)O)NC(=O)[C@H](C)NC(=O)CNC(=O)CCOCCOCCOCCNC(=O)CN1CCN(CC(=O)O)CCN(CC(=O)O)CCN(CC(=O)O)CC1)C(=O)N[C@H](C(=O)N[C@H](C(=O)N[C@@H](CCCCN)C(=O)N[C@H](C(=O)N[C@@H](CC(N)=O)C(N)=O)C(C)C)C(C)C)[C@@H](C)O [copper-64 labelled] |  | ex vivo gamma counting | C57BL/6J male mice, B16-F10 tumour, muscle | intravenous, 1.85 MBq, 20 min | tissue uptake | 1.08 ± 0.485 %ID/g
CN1Cc2cc(Cl)ccc2-n2c(nnc2C2CCN(c3cccc([18F])n3)CC2)C1 |  |  | C57BL/6 mouse male, bone | intravenous, 3.7 MBq, 30 min | tissue uptake | 6.93 ± 1.23 %ID/g
CC(C)(C)C(=O)OCOP(=O)(OCOC(=O)C(C)(C)C)C1CCCN(O)C1=O (stereo not drawn) | MDA-MB-231 |  |  |  | Log10LC50 | > -4 log M
C[C@H](O)[C@@H](NC(=O)[C@H]1CCCN1C(=O)[C@@H](CCCCN)NC(=O)[C@@H](CO)NC(=O)[C@@H](Cc1ccc(O)cc1)NC(=O)[C@@H](CC(N)=O)NC(=O)CCOCCOCCOCCNC(=O)CN1CCN(CC(=O)O)CCN(CC(=O)O)CCN(CC(=O)O)CC1)C(=O)N[C@H](CC(=O)O)C(=O)N[C@H](CCCNC(=N)N)C(=O)N[C@H](CCC(N)=O)C(=O)N[C@H](Cc1ccc(O)cc1)C(=O)N[C@H](Cc1c[nH]cn1)C(=O)N[C@H](Cc1ccccc1)C(N)=O [gallium-68 labelled] |  |  | BALB/c nude mice U-87 MG tumour, fat | intravenous, 1.85 MBq, 1 h, radiolabelled | tissue uptake | 0.27 ± 0.07 %ID/g
CC[C@H](C)[C@H](NC(=O)[C@H](CCCCN)NC(=O)CNC(=O)[C@H](CC(C)C)NC(=O)[C@H](Cc1ccccc1)NC(=O)[C@H](CCCCN)NC(=O)[C@H](CO)NC(=O)[C@H](Cc1ccccc1)NC(=O)[C@H](Cc1c[nH]c2ccccc12)NC(=O)[C@H](CCC(N)=O)NC(=O)[C@@H](NC(=O)[C@H](Cc1ccccc1)NC(=O)CCCCCNC(=O)CN1CCN(CC(=O)O)CCN(CC(=O)O)CCN(CC(=O)O)CC1)C(C)C)C(=O)N[C@@H](CCC(=O)O)C(=O)N1CCC[C@H]1C(=O)N[C@@H](CC(=O)O)C(=O)N[C@H](C(=O)N[C@@H](CO)C(=O)N[C@@H](CCC(N)=O)C(=O)N[C@H](C(=O)N[C@@H](CCC(N)=O)C(=O)N[C@@H](CC(=O)O)C(=O)N1CCC[C@H]1C(=O)N[C@@H](CC(N)=O)C(=O)N[C@@H](CC(=O)O)C(=O)N[C@@H](CCC(N)=O)C(=O)N[C@@H](Cc1ccc(O)cc1)C(=O)N[C@@H](CCC(=O)O)C(=O)N1CCC[C@H]1C(=O)N[C@@H](Cc1ccccc1)C(=O)O)C(C)C)C(C)C [copper-64 labelled] |  |  | C57BL/6 mice, male, naive, brown fat | 0.5 h | tissue uptake | 3.34 ± 0.4 %ID/g
Cc1ccc(N2CC3CN(C)CC3C2)cc1C(=O)N[C@H](C)c1cc(-c2cnn(C)c2)nc2ccccc12 (stereo partly drawn) | African green monkey cells |  |  | 7.812 µM | viability | 86.8%
CC(C)C[C@@H](NC(=O)[C@@H](CCCNC(=N)N)NC(=O)[C@@H](Cc1c[nH]cn1)NC(=O)[C@@H](Cc1c[nH]c2ccccc12)NC(=O)[C@@H](Cc1c[nH]cn1)NC(=O)[C@@H](Cc1ccccc1)NC(=O)[C@H](NC(=O)[C@@H](Cc1ccc(O)cc1)NC(=O)CNC(=O)CNC(=O)CCOCCOCCOCCNC(=O)CN1CCN(CC(=O)O)CCN(CC(=O)O)CC1)[C@H](C)O)C(=O)N[C@H](CC(N)=O)C(=O)N1CCC[C@@H]1C(=O)O [gallium-68 labelled] |  | gamma counting | C57BL/6 mice, male, tumor | intravenous, 1.85 MBq, 120 min | tissue uptake | 3.73 ± 0.36 %ID/g
CSCC[C@H](NC(=O)CNC(=O)[C@H](CCCCN)NC(=O)[C@H](CC(C)C)NC(=O)[C@@H]1CCCN1C(=O)[C@H](CO)NC(=O)[C@H](Cc1c[nH]cn1)NC(=O)[C@H](Cc1c[nH]c2ccccc12)NC(=O)[C@H](CCCNC(=N)N)NC(=O)[C@H](CC(C)C)NC(=O)[C@H](CCCNC(=N)N)NC(=O)[C@H](Cc1c[nH]c2ccccc12)NC(=O)[C@H](CS)NC(=O)CCCCCNC(=O)CN1CCN(CC(=O)O)CCN(CC(=O)O)CCN(CC(=O)O)CC1)C(=O)O [copper-64 labelled] |  |  | BALB/c nude mouse, Huh-7 tumour, small intestine | intravenous, 2 h, ex vivo biodistribution | tissue uptake | 5.12 %ID/g
Cc1ccc(OCCN(C)C)cc1C(=O)N[C@H](C)c1cc(-c2cnn(C3CNC3)c2)nc2ccccc12 | Vero E6 |  |  | 3.906 µM | viability | 100% and 110%
CCCC[C@H]1C(=O)N(C)[C@@H](CCCC)C(=O)N[C@@H](CCCNC(=O)CN2CCN(CC(=O)O)CCN(CC(=O)O)CCN(CC(=O)O)CC2)C(=O)N[C@H](C(=O)NCC(N)=O)CSCC(=O)N[C@@H](Cc2ccc(O)cc2)C(=O)N(C)[C@@H](C)C(=O)N[C@@H](CC(N)=O)C(=O)N2CCC[C@H]2C(=O)N[C@@H](Cc2c[nH]cn2)C(=O)N[C@@H](CC(C)C)C(=O)N(C)CC(=O)N[C@@H](Cc2c[nH]c3ccccc23)C(=O)N[C@@H](CO)C(=O)N[C@@H](Cc2c[nH]c3ccccc23)C(=O)N1C [gallium-68 labelled] |  |  | NOD/SCID mice with CHO-hPD-L1 xenograft, stomach | 120 min post injection | tissue uptake | 2.86 ± 1.6 %ID/g
CC[C@H](C)[C@H](NC(=O)[C@H](CCCNC(=N)N)NC(=O)[C@H](CCCCN)NC(=O)[C@H](Cc1ccc(O)cc1)NC(=O)[C@H](CC(=O)O)NC(=O)[C@H](C)NC(=O)CNC(=O)CCOCCOCCOCCNC(=O)CN1CCN(CC(=O)O)CCN(CC(=O)O)CCN(CC(=O)O)CC1)C(=O)N[C@H](C(=O)N[C@@H](CC(C)C)C(=O)N[C@@H](CCCCN)C(=O)N[C@H](C(=O)N[C@@H](CC(N)=O)C(N)=O)C(C)C)[C@@H](C)O [copper-64 labelled] |  | ex vivo gamma counting | C57BL/6J male mice, B16-F10 tumour, kidney | intravenous, 1.85 MBq, 100 min | tissue uptake | 10.2 ± 3.69 %ID/g
O=C1NC2(CC2)COc2ncc(F)cc2[C@H]2COCCN2c2ccn3ncc1c3n2 |  |  | Sprague-Dawley rat, female, serum | oral, 10 mg/kg/day, 4 weeks daily, end of recovery period | pancreatic amylase activity | 1440 ± 159 U/L

For quick reference, copied from above:
Structure (SMILES) | target or system | test | system | setting | quantity | value
Cc1ccc(OCCN(C)C)cc1C(=O)N[C@H](C)c1cc(-c2cnn(C3CNC3)c2)nc2ccccc12 | Vero E6 |  |  | 3.906 µM | viability | 100% and 110%
